Experimental data of several laboratories.
Lines come from different studies, so protocols differ. “And” joins repeats or separate records; there may be more than shown. ± gives the spread as reported.

`CN1CCCNC(=O)c2cccc(c2)C(=O)NCCCN(C)CCCNc2cccc3c2C(=O)c2cccc(c2C3=O)NCCC1` has an ALT of 29 ± 4.1 U/L (nude mice, serum; dose not given, 10 days).
`CC(C)C[C@H](NC(=O)[C@@H](CCCCNC(=O)[C@@H](Cc1ccccc1)NC(=O)CCCCCCCNC(=O)CN1CCN(CC(=O)O)CCN(CC(=O)O)CCN(CC(=O)O)CC1)NC(=O)[C@H](Cc1ccc(O)cc1)NC(=O)[C@H](CO)NC(=O)[C@H](Cc1c[nH]c2ccccc12)NC(=O)[C@H](Cc1c[nH]cn1)NC(=O)[C@@H]1CCC(=O)N1)C(=O)N[C@@H](CCCNC(=N)N)C(=O)N1CCC[C@H]1C(=O)NCC(N)=O` [indium-111 labelled] gave a tumour-to-tissue ratio of 4.57 (male athymic nude mice, DU-145 prostate cancer xenograft, tumour; intravenous, 0.037 MBq, 4 h; relative to: tumour over blood).
With `CCCCCCCCCCCCCCCC(=O)N[C@@H](CCC(=O)NCCCC[C@H](NC(=O)[C@H](C)NC(=O)[C@H](C)NC(=O)[C@H](CCC(N)=O)NC(=O)CNC(=O)[C@H](CCC(=O)O)NC(=O)[C@H](CC(C)C)NC(=O)[C@H](Cc1ccc(O)cc1)NC(=O)[C@H](CO)NC(=O)[C@H](CO)NC(=O)[C@@H](NC(=O)[C@H](CC(=O)O)NC(=O)[C@H](CO)NC(=O)[C@@H](NC(=O)[C@H](Cc1ccccc1)NC(=O)[C@@H](NC(=O)CNC(=O)[C@H](CCC(=O)O)NC(=O)[C@H](C)NC(=O)[C@@H](N)Cc1cnc[nH]1)[C@@H](C)O)[C@@H](C)O)C(C)C)C(=O)N[C@@H](CCC(=O)O)C(=O)N[C@@H](Cc1ccccc1)C(=O)N[C@H](C(=O)N[C@@H](C)C(=O)N[C@@H](Cc1c[nH]c2ccccc12)C(=O)N[C@@H](CC(C)C)C(=O)N[C@H](C(=O)N[C@@H](CCCNC(=N)N)C(=O)NCC(=O)N[C@@H](CCCNC(=N)N)C(=O)NCC(=O)O)C(C)C)[C@@H](C)CC)C(=O)O` the AST was 81.9 ± 3.9 U/L (mouse DIO; dose not given, day 32 chronic).
`O=C(O)CCCOc1ccc([18F])cc1-c1cc(-c2ccccc2C(F)(F)F)n(-c2ccccc2)n1`: “absorbed radiation dose” 6.06 µGy/MBq (OLINDA/EXM extrapolation from mouse; human adult, breast).
`NCCCC[C@H](NC(=O)[C@H](Cc1c[nH]c2ccccc12)NC(=O)[C@H](Cc1c[nH]c2ccccc12)NC(=O)[C@@H](N)Cc1c[nH]c2ccccc12)C(N)=O` — result for “Trp emission maximum”: 355 nm (DOPC vesicles; 2 h).
The tissue uptake of `CC(C(=O)O)n1nc(Cn2cc3cc(OCC[18F])c(Cl)cc3n2)c2ccccc2c1=O` (racemic) is reported as 0.23 ± 0.04 %ID/g (Sprague-Dawley rat male, pancreas; 30 min).
`O[C@@H]1[C@@H](O)[C@H](n2cc(-c3ccc(-c4nncnn4)cc3)nn2)O[C@H](C[18F])[C@H]1O` — result for “tumour to muscle ratio”: 4.6 (BALB/c nude mouse, LS174T xenograft; intravenous, 1 h, added: CC49-TCO 72 h before).
For `CN([O-])C(=O)CN1CCN(CC(=O)N(C)[O-])CCN(Cc2ccccn2)CC1.[89Zr+4]`, the tracer uptake was 3.88 %ID/g (mouse, blood; intravenous, 1 h).
`CC(C)(F)CC(NC(c1ccc(-c2ccc(S(C)(=O)=O)cc2)cc1)C(F)(F)F)C(=O)NCC#CBr` (centres unmarked): “cysteine adduct formation” 66% (PBS; 100 µM, 23 h, pH 8, 37 °C, added: cysteine 10 mM).
For `Cc1cc(C)n(CCN(CCN)CCCCCCNC(=O)[C@@H](N)Cc2c[nH]cn2)n1.[99Tc+].[C-]#[O+].[C-]#[O+].[C-]#[O+]`, the tumour-to-tissue ratio was 1.3 (BALB/c nude mice A549 xenograft; intravenous, 4 h; relative to: tumour over lung).
`CC(=O)N[C@@H](Cc1ccccc1)C(=O)N[C@@H](CC(C)C)C(=O)NCC(=O)N[C@H](C(=O)N[C@@H](CC(C)C)C(=O)N[C@@H](C)C(=O)N[C@@H](CC(C)C)C(=O)N[C@@H](CC(C)C)C(=O)NCC(=O)N[C@@H](Cc1ccc(O)cc1)C(=O)N[C@@H](CC(C)C)C(=O)N[C@@H](C)C(=O)N[C@H](C(=O)N[C@@H](CCCNC(=N)N)C(=O)N1CCC[C@H]1C(=O)N[C@@H](Cc1ccccc1)C(=O)N[C@@H](CC(C)C)C(=O)N1CCC[C@H]1C(=O)N[C@@H](CCCCN)C(=O)N[C@@H](CCCCN)C(=O)N[C@@H](CCCCN)C(=O)N[C@@H](CCC(N)=O)C(=O)N[C@@H](CCC(N)=O)C(=O)N[C@@H](CCCCN)C(N)=O)C(C)C)C(C)C` — result for “cleaved to intact ratio”: 0.3 ± 0.08 (LC-MS; DOPC/DOPG vesicles with trypsin; 10 µM, 12 h, pH 7.2).
`CN1CCC[C@]1(C)/C=C/S(=O)(=O)NC(=O)Nc1c2c(cc3c1CCC3O)CCC2` (some centres unmarked): “Tmax at second steady-state dose” 3.5 h (human, plasma; oral, 50 mg twice daily of parent drug, day 14, metabolite of dosed drug).
Under “MS peak area”, `CCNCC#CCNc1ccnc2cc(Cl)ccc12` is recorded as 4.23e+06 a.u. (measured: compound as metabolite; mouse hepatocytes; 10 µM DAQ, 30 min; higher = more metabolite formed).
With `C=CC(=O)Nc1cc(Nc2nccc(-c3c[nH]c4ccccc34)n2)c(OC)cc1N(C)CCN(C)C` the recovery was 53.1% (storage stability; human plasma; 30 d, on ice, HQC level).
For `C=Cc1c(C)c2cc3nc(c(CC(=O)OCCOCCOCCOC)c4[nH]c(cc5nc(cc1[nH]2)C(C)=C5CC)c(C)c4C(=O)O)[C@@H](CCC(=O)OCCOCCOCCOC)[C@@H]3C`, the compound loss was 3% (LC-MS; methanol-water 9:1; 5 min, pH 8.0).
The tissue uptake of `O=C(CN1CCN(CC(=O)NCc2ncccc2O)CCN(CC(=O)NCc2ncccc2O)CCN(CC(=O)NCc2ncccc2O)CC1)NCc1ncccc1O.[177Lu+3]` is reported as 0.079 ± 0.026 % injected dose/g (Sprague-Dawley rat, bone; intravenous (tail vein), dose not given, 2 h).
The intact complex of `CC(=O)N([O-])CCCCCNC(=O)CCC(=O)N([O-])CCCCCNC(=O)CCC(=O)N([O-])CCCCCN.[89Zr+4]` is reported as 59.4 ± 1.4% (radio-TLC; aqueous buffer; 7 d, pH 5, 37 °C, 89Zr-labelled complex, added: DTPA 1000-fold excess).
`Cc1ccc(CN2C(=O)/C(=N\c3ccc(Cl)cc3Br)c3ccccc32)cc1` gave a haematocrit of 37.4 ± 2.43% (mouse, blood; 100 mg/kg).
The concentration of `C=CC(=O)N1CCCC(n2c(=O)c3ncccc3n(Cc3ccc(Oc4ccccc4)cc3)c2=O)C1` (centres unmarked) is reported as 87.4 µg/mL (male BALB/c mouse, plasma; intraperitoneal, 200 mg/kg, 30 min).
With `O=C(c1ccccc1)N1C(c2ccc(OCC3CCN(CCCF)C3)cc2)c2ccc(O)cc2CC12CC2` (centres unmarked) the MRT(0-inf) was 2.11 h (C57BL/6J mouse, plasma; intraperitoneal, 25 mg/kg).
`CCCC[C@H](NC(=O)CNC(=O)CNC(=O)[C@H](CCCCNC(=O)[C@H](CCN)NC(=O)C(C)c1ccc(CC(C)C)cc1)NC(=O)CN1CCN(CC(=O)O)CCN(CC(=O)O)CCN(CC(=O)O)CC1)C(=O)N[C@H]1CC(=O)NCCCC[C@@H](C(N)=O)NC(=O)[C@H](Cc2c[nH]c3ccccc23)NC(=O)[C@H](CCCNC(=N)N)NC(=O)[C@@H](Cc2ccccc2)NC(=O)[C@H](Cc2c[nH]cn2)NC1=O` (some centres unmarked) [lutetium-177 labelled] has a tumour-to-tissue ratio of 0.35 (C57 mice, tumour; 2 h; relative to: kidney).
The SUV of `Cc1nc(N)nc2c1C(=O)N[C@@H](c1ccc(F)cc1-c1cccc(O[11CH3])n1)C2` is reported as 5.2 ± 1 (ex vivo biodistribution; healthy mice, spleen; 60 min post-injection, baseline, vehicle pre-treatment).
`N=C(N)NCCC[C@@H]1NC(=O)[C@H](CO)NC(=O)[C@@H](NC(=O)[C@H](CO)NC(=O)[C@H](CO)NC(=O)[C@H](Cc2c[nH]c3ccccc23)NC(=O)CNC(=O)[C@H](CO)NC(=O)[C@@H](N)Cc2c[nH]c3ccccc23)CSSC[C@@H](C(=O)NCC(=O)O)NC(=O)[C@H](CO)NC1=O`: “volume of distribution (Vz)” 438 L (patients, plasma; intravenous, 10 mg/kg, thrice weekly, mean).
`C=C(NC(=O)c1csc(-c2nc3c(cc2O)-c2nc(cs2)C(=O)NC(C(C)O)C(=O)NC(=C(C)OC)c2nc(cs2)C(=O)NC2c4nc(cs4)C(=O)NC(COC(=O)c4c5c6c(cccc6n4O)COC(=O)C(OC4CC(C)(O)C(N(C)C)C(C)O4)C2OC5)c2nc-3cs2)n1)C(N)=O` (centres unmarked) gave a Tmax of 0.34 h (cynomolgus monkey, male, plasma; intravenous infusion, 3 mg/kg multiple doses, day 7).
With `CCCCN1C(=O)c2cccc3c(NCCCCCCCCCCN4CCOCC4)ccc(c23)C1=O` the fluorescence lifetime was 10.2 ns (DMF).
The remaining amount of `C=CC(=O)Nc1cc(Nc2nccc(-c3cn(C)c4ccccc34)n2)c(OC)cc1N(C)CCNC` is reported as 94.3% (storage stability; human dried blood spot; 270 ng/mL, 5 h, on ice, HQC level).
For `O=C(Nc1cnccc1-c1ccc([18F])nc1)c1ccnc(NC(=O)C2CC2)c1`, the SUV was 0.063 (ex vivo gamma counting; GSK-3β transgenic mice, early-stage, thalamus; intravenous, 120 min, mean, P-gp inhibitor pretreatment, added: tariquidar 15 mg/kg iv).
`Cc1nn(-c2nc3c(F)cc(F)cc3s2)c(O)c1C(c1ccc(C(F)(F)F)cc1)c1c(C)nn(-c2nc3c(F)cc(F)cc3s2)c1O` gave a dose-normalised Cmax of 4330 kg·ng/mL/mg and 1940 kg·ng/mL/mg and 2550 kg·ng/mL/mg (ICR mouse, plasma; intravenous, 5 mg/kg).
`COc1cccc(OC)c1-c1cc(C(=O)NC2(C(=O)O)C3CC4CC(C3)CC2C4)nn1-c1ccc(C(=O)N(C)CCOCCN(C)C(=O)[C@H](CCCCNC(=O)[C@H](CC(C)C)NC(=O)C2OC2C(=O)O)NC(=O)CN2CCN(CC(=O)[O-])CCN(CC(=O)[O-])CCN(CC(=O)[O-])CC2)cc1C(C)C.[177Lu+3]` (mixture of isomers) has a tumour-to-heart ratio of 5.93 (mouse, HT-29 xenograft; 4 h post injection, biodistribution; relative to: tumour over heart uptake).
For `CCCC[C@H](NC(=O)CNC(=O)CNC(=O)[C@H](CCCCNC(=O)[C@H](CC(=O)O)NC(=O)C(C)c1ccc(CC(C)C)cc1)NC(=O)CN1CCN(CC(=O)O)CCN(CC(=O)O)CCN(CC(=O)O)CC1)C(=O)N[C@H]1CC(=O)NCCCC[C@@H](C(N)=O)NC(=O)[C@H](Cc2c[nH]c3ccccc23)NC(=O)[C@H](CCCNC(=N)N)NC(=O)[C@@H](Cc2ccccc2)NC(=O)[C@H](Cc2c[nH]cn2)NC1=O` (some centres unmarked) [lutetium-177 labelled], “tumour to tissue ratio” read 0.21 (C57 mouse; intravenous, 2 h, added: NDP-MSH blockade; relative to: tumour over kidney).
`COCC1CN(C2CCN(c3cc(OC)c(Nc4ncc(Br)c(Nc5ccc6c(c5P(C)(C)=O)OCCO6)n4)cc3C)CC2)C1` gave an AUC of 590 ng·h/mL (human, plasma; oral, 10 mg, multiple doses, patients).
`C=Cc1c(C)c2cc3nc(c(CC(=O)O)c4[nH]c(cc5nc(cc1[nH]2)C(C)=C5CC)c(C)c4C(=O)O)[C@@H](CCC(=O)OCCOCCOCCOC)[C@@H]3C` gave a compound loss of 18% (LC-MS; methanol-water 9:1; 1 h, pH 8.0).

Excerpt of the above:
For `O=C(Nc1cnccc1-c1ccc([18F])nc1)c1ccnc(NC(=O)C2CC2)c1`, the SUV was 0.063 (ex vivo gamma counting; GSK-3β transgenic mice, early-stage, thalamus; intravenous, 120 min, mean, P-gp inhibitor pretreatment, added: tariquidar 15 mg/kg iv).
With `CCCCCCCCCCCCCCCC(=O)N[C@@H](CCC(=O)NCCCC[C@H](NC(=O)[C@H](C)NC(=O)[C@H](C)NC(=O)[C@H](CCC(N)=O)NC(=O)CNC(=O)[C@H](CCC(=O)O)NC(=O)[C@H](CC(C)C)NC(=O)[C@H](Cc1ccc(O)cc1)NC(=O)[C@H](CO)NC(=O)[C@H](CO)NC(=O)[C@@H](NC(=O)[C@H](CC(=O)O)NC(=O)[C@H](CO)NC(=O)[C@@H](NC(=O)[C@H](Cc1ccccc1)NC(=O)[C@@H](NC(=O)CNC(=O)[C@H](CCC(=O)O)NC(=O)[C@H](C)NC(=O)[C@@H](N)Cc1cnc[nH]1)[C@@H](C)O)[C@@H](C)O)C(C)C)C(=O)N[C@@H](CCC(=O)O)C(=O)N[C@@H](Cc1ccccc1)C(=O)N[C@H](C(=O)N[C@@H](C)C(=O)N[C@@H](Cc1c[nH]c2ccccc12)C(=O)N[C@@H](CC(C)C)C(=O)N[C@H](C(=O)N[C@@H](CCCNC(=N)N)C(=O)NCC(=O)N[C@@H](CCCNC(=N)N)C(=O)NCC(=O)O)C(C)C)[C@@H](C)CC)C(=O)O` the AST was 81.9 ± 3.9 U/L (mouse DIO; dose not given, day 32 chronic).
`CCCC[C@H](NC(=O)CNC(=O)CNC(=O)[C@H](CCCCNC(=O)[C@H](CCN)NC(=O)C(C)c1ccc(CC(C)C)cc1)NC(=O)CN1CCN(CC(=O)O)CCN(CC(=O)O)CCN(CC(=O)O)CC1)C(=O)N[C@H]1CC(=O)NCCCC[C@@H](C(N)=O)NC(=O)[C@H](Cc2c[nH]c3ccccc23)NC(=O)[C@H](CCCNC(=N)N)NC(=O)[C@@H](Cc2ccccc2)NC(=O)[C@H](Cc2c[nH]cn2)NC1=O` (some centres unmarked) [lutetium-177 labelled] has a tumour-to-tissue ratio of 0.35 (C57 mice, tumour; 2 h; relative to: kidney).
Under “MS peak area”, `CCNCC#CCNc1ccnc2cc(Cl)ccc12` is recorded as 4.23e+06 a.u. (measured: compound as metabolite; mouse hepatocytes; 10 µM DAQ, 30 min; higher = more metabolite formed).
The SUV of `Cc1nc(N)nc2c1C(=O)N[C@@H](c1ccc(F)cc1-c1cccc(O[11CH3])n1)C2` is reported as 5.2 ± 1 (ex vivo biodistribution; healthy mice, spleen; 60 min post-injection, baseline, vehicle pre-treatment).
